Values quoted from earlier work that unrelated publications cite.
Protocols differ between the studies behind these lines. Numbers after ± are the reported error.

With `O=P(O)(OC[C@H]1OC(O)[C@H](O)[C@@H]1O)OP(=O)(O)OC[C@H]1O[C@@H](n2cnc3c2ncn2ccnc32)[C@H](O)[C@@H]1O` (some centres unmarked) the IC50 was 112 µM (TRPM2 (human); channel current, inhibitor, inside-out patch clamp; together with: saturating cytosolic Ca2+).
`Oc1cccc(-c2nc(N3CCOCC3)c3oc4ncccc4c3n2)c1` gave an IC50 of 0.02 µM (mTORC1; enzyme activity, inhibitor; together with: 10 µM ATP).
`CN1CC(=O)N2[C@H](c3ccc4c(c3)OCO4)c3[nH]c4ccccc4c3C[C@@H]2C1=O` has an IC50 of > 10 µM (PDE1; inhibitor).
With `O=C(O)c1ccc(/C=C2\SC(=S)N(c3cccc(C(F)(F)F)c3)C2=O)cc1` the IC50 was 0.3 to 3 µM (CFTR; chloride conductance, blocker; depends on cell type and voltage).
For `GST-Skp2(1-424) fusion protein`, the IC50 was 0.52 µM (CDK2-cyclin A (human); Rb phosphorylation, inhibitor; together with: Rb).
With `CC(C)/N=c1\cc2n(-c3ccc(Cl)cc3)c3ccccc3nc-2cc1Nc1ccc(Cl)cc1` the IC50 was 30 to 50 µM (OSTα/β (human); transport, inhibitor).
With `CCCC(CCC)C(=O)O` the IC50 was > 2000 µM (non-class I HDACs).
`C=C(c1ccc(C(=O)O)cc1)c1cc2c(cc1C)C(C)(C)CCC2(C)C` has an IC50 of 12.3 µM (CYP26A1; enzyme activity, inhibitor; together with: 9-cis-retinoic acid).
`N[C@@H](CCC(=O)O)C(=O)O` gave an IC50 of 500 µM (glutamate carboxypeptidase II; enzyme activity, radioenzymatic or HPLC).
`C[n+]1cn([C@@H]2O[C@H](COP(=O)(O)O)[C@@H](O)[C@H]2O)c2nc(N)[nH]c(=O)c21` gave an IC50 of 2.5 µM (Caenorhabditis elegans decapping scavenger DcpS; hydrolytic activity, inhibitor).
For `C=C(NC(=O)C(=C)NC(=O)c1csc(C2=N[C@@H]3c4csc(n4)[C@H]4NC(=O)c5csc(n5)[C@H]([C@](C)(O)[C@@H](C)O)NC(=O)[C@H]5CSC(=N5)/C(=C/C)NC(=O)[C@H]([C@@H](C)O)NC(=O)c5csc(n5)[C@]3(CC2)NC(=O)[C@H](C)NC(=O)C(=C)NC(=O)[C@H](C)NC(=O)[C@H]([C@@H](C)CC)N[C@@H]2C=Cc3c([C@H](C)O)cc(nc3[C@H]2O)C(=O)O[C@@H]4C)n1)C(N)=O`, the IC50 was 42.6 ± 1.4 µM (FOXM1, full length; DNA binding, inhibitor).
`Brc1ccc(CN2CCC(CCOC(c3ccccc3)c3ccccc3)CC2)cc1` gave an IC50 of 2.57 ± 0.179 µM (serotonin transporter; reuptake, inhibitor).
With `CCCC(CCC)C(=O)O` the IC50 was > 20000 µM (HDAC6; inhibitor).
With `CC(C)(O)CC(=O)NCCn1ccc2ncnc(Nc3ccc(Oc4cccc(C(F)(F)F)c4)c(Cl)c3)c21` the IC50 was 9.3 ng/mL (HER2, human; kinase activity, inhibitor, cell-based).
The IC50 of `Cc1[nH]c(N)nc1CCC(=O)c1cc(F)cc(F)c1` is reported as 13.3 ± 1 µM (Hv1 proton channel; proton current, inhibitor).
`CCN(CCO)CCCC(C)Nc1ccnc2cc(Cl)ccc12` (centres unmarked) has an IC50 of > 300 µM (Ito channel; ion current, inhibitor; CHO cells; room temperature).
`COc1ccc2c(c1OC)N=C(NC(=O)c1cccnc1)N1CCN=C21` gave an IC50 of > 100 µM (PI4KIIα; enzyme activity, inhibitor; together with: 10 µM ATP).
`CCCOc1ccccc1-c1nc2nn[nH]c2c(=O)[nH]1` has an IC50 of 29 to 35 µM (PDE9, human; enzyme activity, inhibitor).
`C[C@@H](NCCN(C)C)[C@@H]1CC[C@@H]2[C@H]3CCc4cc(O)ccc4[C@@H]3CC[C@]21C` has an IC50 of 0.83 µM (CatSper, mouse; alkalization/depolarization-induced activation, inhibitor; mouse sperm).
`COc1ccc2c(c1)CCCN2c1nc(Cl)nc2ccccc12` has an IC50 of 0.93 ± 0.04 µM (tubulin; tubulin polymerisation, inhibitor; 20 min, 30 °C).
`CCCCCCCCCCCCNC(=O)NC1CCCCC1` gave an IC50 of 0.007 ± 0.0002 µM (human soluble epoxide hydrolase; inhibitor; together with: PHOME substrate).
For `Cc1ccc([N+](=O)[O-])cc1S(=O)(=O)N(C)/N=C/c1cnc2ccc(Br)cn12`, the IC50 was > 100 µM (phosphatidylinositol 5-phosphate 4-kinase type II beta; enzyme activity, inhibitor; together with: 10 µM ATP).
The IC50 of `O=C(O)c1ccc(C=C2SC(=S)N(c3cccc(C(F)(F)F)c3)C2=O)cc1` is reported as ~0.3 µM (CFTR; inhibitor).
With `CC(Cc1c[nH]c2ccccc12)(NC(=O)Nc1ccc([N+](=O)[O-])cc1)C(=O)NCC1(c2ccccn2)CCCCC1` (centres unmarked) the IC50 was 2.15 ± 0.402 µM (mouse GRP receptor; binding; literature species comparison).
The IC50 of `C1=C/COCc2cc(ccc2OCCN2CCCC2)Nc2nccc(n2)-c2cccc(c2)COC/1` is reported as < 1 µM (CSF1R human; phosphorylation, inhibitor; macrophages, CLL patients).
`Cc1cc(O)c2c(c1)C(=O)c1cc(O)cc(O)c1C2=O` gave an IC50 of 50 to 100 µM (trypsin; enzyme activity, inhibitor; range of inhibitory concentrations).
For `YIRLHF`, the IC50 was 122 µM (angiotensin-converting enzyme; enzyme activity, inhibitor; peptide).
`OC(c1cc(C(F)(F)F)nc2c(C(F)(F)F)cccc12)C1CCCCN1` (centres unmarked) gave an IC50 of 0.3 µM (connexin-36 gap junction channel; channel conductance, inhibitor).
For `Cc1cc(C(C)Nc2ccccc2)c2oc(-c3ccncc3)cc(=O)c2c1` (centres unmarked), the IC50 was > 100 µM (ATR; kinase activity, inhibitor; together with: 10 µM ATP).
With `CC(C)C[C@H](NC(=O)[C@@H](CC(=O)NO)Cc1ccccc1)C(=O)O` the IC50 was 0.03 to 0.06 µM (neprilysin; inhibitor; range reported for several peptidases).
The IC50 of `C=CCn1c(=O)c2cnc(Nc3ccc(N4CCN(C)CC4)cc3)nc2n1-c1cccc(C(C)(C)O)n1` is reported as 0.24 µM (CDK1 phosphorylation; derived from non-clinical data).
`Cc1cc([C@H](C)Nc2ccccc2)c2oc(N3CCOCC3)cc(=O)c2c1` gave an IC50 of > 100 µM (phosphatidylinositol 5-phosphate 4-kinase type II beta; enzyme activity, inhibitor; together with: 10 µM ATP).
`CC(C)C[C@H](CC(=O)NO)C(=O)N[C@H](C(=O)N[C@@H](C)C(=O)NCCN)C(C)(C)C` has an IC50 of > 100 µM (recombinant ADAM12; inhibitor).
`Cc1[nH]c2ccccc2c1CCNCc1ccc(/C=C/C(=O)NO)cc1` gave an IC50 of < 0.005 µM (class I HDACs; inhibitor).
The IC50 of `CNC(=O)[C@H](Cc1c[nH]c2ccccc12)NC(=O)[C@@H](CC(=O)NO)CC(C)C` is reported as > 10 µM (recombinant ADAM12; inhibitor).
`NC[C@@H]1O[C@H](O[C@H]2[C@@H](O)[C@H](O[C@@H]3[C@@H](O)[C@H](N)C[C@H](N)[C@H]3O[C@H]3O[C@H](CO)[C@@H](O)[C@H](O)[C@H]3N)O[C@@H]2CO)[C@H](N)[C@@H](O)[C@@H]1O` gave an IC50 of 0.051 ± 0.005 µM (Escherichia coli ribosome; translation, inhibitor, item: firefly luciferase; Escherichia coli S30 lysate).
For `NCCCOc1cc2ccccc2cc1C(=O)NCCCOc1cc2ccccc2cc1C(=O)Nc1ccc(Cl)cc1O`, the IC50 was 2.22 ± 0.38 µM (CREB; CREB-mediated gene transcription, inhibitor; HEK293T; together with: forskolin 10 µM).
`[Mn+2]` gave an IC50 of 58 µM (voltage-gated calcium channels; barium current, blocker).

Some of these lines once more:
`N[C@@H](CCC(=O)O)C(=O)O` gave an IC50 of 500 µM (glutamate carboxypeptidase II; enzyme activity, radioenzymatic or HPLC).
`CCN(CCO)CCCC(C)Nc1ccnc2cc(Cl)ccc12` (centres unmarked) has an IC50 of > 300 µM (Ito channel; ion current, inhibitor; CHO cells; room temperature).
`[Mn+2]` gave an IC50 of 58 µM (voltage-gated calcium channels; barium current, blocker).
With `CC(C)(O)CC(=O)NCCn1ccc2ncnc(Nc3ccc(Oc4cccc(C(F)(F)F)c4)c(Cl)c3)c21` the IC50 was 9.3 ng/mL (HER2, human; kinase activity, inhibitor, cell-based).
With `CC(Cc1c[nH]c2ccccc12)(NC(=O)Nc1ccc([N+](=O)[O-])cc1)C(=O)NCC1(c2ccccn2)CCCCC1` (centres unmarked) the IC50 was 2.15 ± 0.402 µM (mouse GRP receptor; binding; literature species comparison).
